Measured values from different studies.
Each numbered part is a random draw from the data of one study; scales do not carry over between parts. Changes are numbered by the printed parent chain.

Block 1
Target: Interferon regulatory factor 5, full length, phosphomimetic (IRF5, Homo sapiens, UniProt Q13568-2, residues 1-514, K96S/S451D/S453D/S456D/S462D)
Method: protein-binding microarray
Form: double-stranded DNA, one strand shown
Medium: in vitro
Tested at: 250 nM
Setting: 60-bp whole probe
Added: salmon DNA 0.4 mg/ml
Relative to: random background probes
Direction: higher = stronger binding
Shared flanks, not repeated: GCCTAGCAC … GTCTTGATTCGCTTGACGCTGCTG
Oligonucleotide	log fluorescence
TTAGATATCGGGTATCGAGTAGTGCTA	3.64 z-score
TTAGTTTTCCTACTGCTTTAGTGCTAG	1.31 z-score
TTATATATCAGACTGGATTAGTGCTAG	0.442 z-score
CAGGAAATCAACTTTTTTTAAGTGCTA	0.476 z-score
TTGAATCTCCCATTATATTTGTGCTAG	0.643 z-score
GTCATTTACATTTTAGTAGTGTGCTAG	0.589 z-score
TTAGGTCTCCTTTTCCATTAGTGCTAG	0.461 z-score
GTCAAACTCACTCATGGCTTTGTGCTA	0.181 z-score
TTACCCCATCCCCCTTTTCTGTGCTAG	0.315 z-score
TTAGGCCTCCTTTTCCTTTAGTGCTAG	0.118 z-score
TATTGTTTCCTTCCTCTTTTGTGCTAG	2.47 z-score
GACGGTTGCCTACTGCTGACGTGCTAG	-0.342 z-score
GACTGTATCGACTTTCGGGACGTGCTA	6.8 z-score
GACGGTTACGGTCTCGGGACGTGCTAG	-0.194 z-score
TCAATCCCCAGTCTCATACTGTGCTAG	0.0974 z-score
ACGTTTTTCATTTTTTTTTTGTGCTAG	2.24 z-score
GTCGAACTGGGGTATCGAGACGTGCTA	0.42 z-score

Block 2
Target: Sal-like protein 4, full length isoform B (SALL4, Homo sapiens, UniProt Q9UJQ4-2, residues 1-616)
Method: universal PBM
Form: double-stranded DNA, one strand shown
Medium: in vitro
Tested at: not given
Setting: 8-mer, flanks averaged, mean of replicates
Direction: higher = stronger binding
Target sequence (chain): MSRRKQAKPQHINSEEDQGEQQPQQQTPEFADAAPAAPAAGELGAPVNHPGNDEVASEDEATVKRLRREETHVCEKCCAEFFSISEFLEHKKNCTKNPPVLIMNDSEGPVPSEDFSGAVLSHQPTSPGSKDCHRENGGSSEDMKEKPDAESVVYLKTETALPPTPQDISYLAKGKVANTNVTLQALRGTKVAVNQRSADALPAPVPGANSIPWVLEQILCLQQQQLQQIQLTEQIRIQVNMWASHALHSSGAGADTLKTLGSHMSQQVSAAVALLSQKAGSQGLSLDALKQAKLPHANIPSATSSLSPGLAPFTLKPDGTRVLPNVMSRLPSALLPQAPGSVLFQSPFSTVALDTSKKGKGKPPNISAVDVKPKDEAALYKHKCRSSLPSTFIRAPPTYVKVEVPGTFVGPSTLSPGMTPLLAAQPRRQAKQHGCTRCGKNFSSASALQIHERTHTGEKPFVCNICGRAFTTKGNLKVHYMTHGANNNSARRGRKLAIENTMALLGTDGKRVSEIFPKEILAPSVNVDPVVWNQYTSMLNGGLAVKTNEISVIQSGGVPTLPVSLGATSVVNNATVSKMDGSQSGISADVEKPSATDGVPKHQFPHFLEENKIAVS
Oligonucleotide	E-score
CTCAATCA	0.0127
CTTACTCC	0.0356
AAGGAATA	0.217
GTGATAAA	0.233
AAAAGGCA	0.147
CAGCCACC	-0.181
CACAGAGG	-0.163
GTTCGCAA	0.101
AGTCACTG	-0.184
AAAATAGA	0.329
CAGGATGA	-0.0651
ACTGTTAT	0.291
CGGGGCTA	-0.31
CCAGGATA	-0.026
AGCTCACG	-0.169
CCATTGGA	-0.0873

Block 3
Target: CCNE1, cyclin fold, Cln2 fusion (human)
Method: yeast growth competition, sequencing
Medium: yeast
Setting: weak parent motif
Relative to: not given
Direction: higher = stronger binding
Starting sequence: MICAL3 docking peptide (human); LQLRRQLSFSEDS
Change	normalised enrichment score
LQLIRQLSFSEDS [R4I]	0.906
LQLRHQLSFSEDS [R5H]	-0.114
LQLRRQLSFSEGS [D12G]	0.989
LQLRYQLSFSEDS [R5Y]	0.0935
LQLRRQLSESEDS [F9E]	-0.0889
LQLRRQLSFMEDS [S10M]	0.373
LQLRRQLSFSLDS [E11L]	1.26
LQLDRQLSFSEDS [R4D]	0.0282
LQLRRYLSFSEDS [Q6Y]	0.48
LQLRRQLSFSETS [D12T]	1.27

Other studies, line by line
Substance	target	assay	system	setting	how to read	quantity	result
PhoQ, residues 284 288 289 292 302 303 TYGVAM	PhoP, residues 12 14 15 18 19 LFHKL (Escherichia coli, UniProt P23836)	Sort-seq, item: YFP reporter	E. coli	PhoQ-PhoP variant library, added: 10 µM Mg2+	relative to: high Mg2+ state, higher = stronger signaling	fold induction	6.63

For quick reference, copied from above (block 2):
Oligonucleotide	E-score
CTTACTCC	0.0356
ACTGTTAT	0.291
GTTCGCAA	0.101
AAAAGGCA	0.147
CAGCCACC	-0.181
AAAATAGA	0.329
AAGGAATA	0.217
